Measurements of several laboratories.
Each numbered part is a random draw from the data of one study; scales do not carry over between parts. Values joined by “and” are separate records of one study, mostly repeats; a detail may differ. Changes are numbered by the printed parent chain.

Study 1
Target: CCNE2, cyclin fold, Cln2 fusion (human)
Method: yeast growth competition, sequencing
Medium: yeast
Setting: weak parent motif
Relative to: not given
Direction: higher = stronger binding
Starting sequence: MASTL docking peptide (human); PMIAKNLMCELDE; partner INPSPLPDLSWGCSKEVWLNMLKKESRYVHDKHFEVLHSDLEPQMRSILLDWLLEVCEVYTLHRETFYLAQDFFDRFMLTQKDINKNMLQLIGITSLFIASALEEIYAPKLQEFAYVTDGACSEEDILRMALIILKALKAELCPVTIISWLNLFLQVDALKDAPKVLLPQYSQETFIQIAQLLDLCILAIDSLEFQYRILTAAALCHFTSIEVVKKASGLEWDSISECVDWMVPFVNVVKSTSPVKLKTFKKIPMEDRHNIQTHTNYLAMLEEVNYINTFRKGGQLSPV
Change | normalised enrichment score
M2F | 0.11
A4W | 0.308
D12F | 0.121
A4T | -0.127
C9R | 0.182
C9T | 0.231
M2S | 0.116
E10I | 0.3
E10Q | 0.185
N6L | -0.00102
M8K | 0.0352
N6T | 0.224
C9K | -0.131
I3G | 0.292
M2H | -0.186
K5N | -0.016
M2V | 0.0378
L7Y | -0.0446
L7S | -0.0187
L11E | -0.122
L7H | -0.973
A4R | 0.3
D12I | -0.257
K5C | -0.0606
L7A | -0.148

Study 2
Target: MAFK, bZIP domain (human)
Method: DHFR protein complementation
Medium: yeast
Setting: single substitutions, most at no-binding floor
Relative to: wild-type JUN-FOS pair
Direction: higher = stronger binding
Starting sequence: JUN, bZIP domain (human); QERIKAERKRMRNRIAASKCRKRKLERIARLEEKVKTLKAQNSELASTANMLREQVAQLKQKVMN; partner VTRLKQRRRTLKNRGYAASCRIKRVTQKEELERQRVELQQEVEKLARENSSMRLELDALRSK
Change | binding fitness [natural log]
R53Y | -1.26
E33C | -1.55
T48A | -1.51
E33W | -1.51
E32H | -1.46
S43I | -1.62
L31E | -1.56
M51V | -1.33
K39Y | -1.28
L45E | -1.5
E44Q | -1.42
E54D | -1.5
K34Q | -1.35
A40R | -1.44
R53P | -1.48
I28G | -1.51
T48P | -1.53
N42V | -1.33
A29E | -1.46
A29V | -1.47

Study 3
Target: Histone acetyltransferase KAT6A, both winged helices, GST fusion (KAT6A, Homo sapiens, UniProt Q92794, residues 1-181)
Method: protein binding microarray
Form: double-stranded DNA, one strand shown
Medium: in vitro
Concentration: not given
Setting: 8-mer, flanks averaged, mean of 2 arrays, mostly near background
Relative to: not given
Direction: higher = stronger binding
Target sequence (chain): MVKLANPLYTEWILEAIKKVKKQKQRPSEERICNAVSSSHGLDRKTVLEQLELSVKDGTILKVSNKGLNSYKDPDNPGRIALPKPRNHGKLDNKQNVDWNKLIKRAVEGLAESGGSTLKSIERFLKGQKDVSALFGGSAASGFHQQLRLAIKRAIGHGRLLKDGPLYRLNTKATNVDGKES
Oligonucleotide | E-score
CACTAATA | -0.0726
GTAGCACA | 0.0536
TACACACA | -0.137
AAACCGGT | 0.218
ATTTCACA | -0.126
AGGCCGGC | 0.2
CAGCCGGA | 0.131
CGTCGACA | 0.075
ATCTGCGG | 0.151
ATAACGGG | 0.149
AGTTACCC | -0.142
CTTTATGC | 0.0705
AAATGTTA | 0.00202
AATCTGCG | 0.138
AAAAGTAC | 0.0116
ATGGGCAA | -0.182
CGTCGATC | 0.0565

Study 4
Target: POU, POU domain (Salpingoeca helianthica)
Method: Spec-seq
Form: double-stranded DNA, one strand shown
Medium: in vitro
Concentration: not given
Setting: whole probe, mean of replicates
Relative to: not given
Direction: lower = stronger binding
Shared flanks, not repeated: GAGTCGTCTCGTCAGCAC … CCGTAGAGCACTCAGGTC
Residues (chain): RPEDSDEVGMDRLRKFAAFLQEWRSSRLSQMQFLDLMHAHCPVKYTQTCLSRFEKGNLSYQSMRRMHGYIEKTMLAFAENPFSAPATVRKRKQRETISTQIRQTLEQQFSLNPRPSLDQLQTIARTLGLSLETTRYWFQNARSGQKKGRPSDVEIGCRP
Oligonucleotide | relative binding energy
ATGCAATC | 1.4 ln ratio
ATGCTGAC | 0.811 ln ratio
ATGCCGTC | 1.29 ln ratio
ATGACCAT | 1.11 ln ratio
ATTCTCAT | 1.26 ln ratio
TCATTAAT | -1.13 ln ratio
ATTCTAAT | 0.441 ln ratio
TTGGTAAT | 0.504 ln ratio
AGGGTAAT | 0.958 ln ratio
ATTGGAAT | 1.03 ln ratio

Study 5
Target: RNA binding protein fox-1 homolog 2, RRM domain, GST-SBP tag (RBFOX2, Homo sapiens, UniProt O43251-10, residues 100-194)
Method: RNA Bind-n-Seq
Form: RNA
Medium: in vitro
Concentration: 365 nM
Setting: natural RNA segment, single round, ends assumed
Relative to: no-protein control
Direction: higher = stronger binding
Shared flanks, not repeated: GGGAGUUCUACAGUCCGACGAUC … UGGAAUUCUCGGGUGCCAA
Target sequence (chain): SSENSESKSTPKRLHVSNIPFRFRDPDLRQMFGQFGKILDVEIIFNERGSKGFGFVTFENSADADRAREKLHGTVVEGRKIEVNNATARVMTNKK
Oligonucleotide | RBNS enrichment (R)
CUAGAGAAAACUUACAGAACAGGUGUUAAGCCUUUUCCAAUAUUUAGUAUUGUAGUCUUCAUAGAAAUCAUUUCUAGUUACAGAAAAAUUUAACUCCAGAAUAUGGUGAU | 0.313
UAGAGUAGCAUAUUAGACAACAGUCAUCAUUGCAAGUAGGAGGACCGUAAAUGGCAUUUUACAUGACUGCAAGUAUUGUUAUACCGAAUCCUAUUUUAAAAGAGUUUUAG | 0.565
UUUCCCUUUUUUUGUGGGGGAGGGUUGGUGGUAUAUUUUUCCCCUCUUUUUUCCUUCCUCUCCUACAUCUCCCUUUUCCCCCGAUCCAAGUUGUAGAUGGAAUAGAAGCC | 0.533
ACACCCACAGCAGCAAGAAUGACCUCCUGCAGCAGAUAUUCCACCUGUAAUAGCACUUUGGAACUGUGGGCAAAACCAAAAGGCUAGUGUUUCCAUUUAUUCCAUGUUGG | 0.826
AGACUUUUGCCAAAGCUCUUAUUUUUUUUCUAAAUCUCUCCAGAAAAAAAUUGCAAGUGAUUAGAUUCAAUUAUUGAUUUAUUUACUUCUACUUUGUAUCCAUGACUUCU | 0.782
GGGAGUGGAAGAAGGGAAGCCUUUUGCAAAUAGUAGAGUAUCAGUUGCAGGUGCCAAUGACUAACUUUUUGAAUUCUAUGUUGGCAUUAACAAUAAAGCAUUUUGCAAAC | 1.03
AUUGCAAGCAGUUGCUGAGCCUGCUGGUGAACACCAUUGCAAGCAGUUGCUGAGCCUGCUCGUGAACACCAUUGCAAGCCAUUGCUGUCAAGCUUCAUGAGUUAAAUUUA | 0.367
AAUGCUCCUGGCAUUUCUGGAGCAGGAGGUUGUCAGGACAACACAUAUAACCACCAAGGAUGUGUUGGCCUUUGGAGUUCCCCUUUAGGUUCCUAGUGAUGUGGAGGUUU | 0.498

Other studies, line by line
Molecule | target | test | system | conditions | how to read | quantity | value
PhoQ, residues 284 288 289 292 302 303 ALSMDL | PhoP, residues 12 14 15 18 19 LWHSL (Escherichia coli, UniProt P23836) | Sort-seq, item: YFP reporter | E. coli | PhoQ-PhoP variant library, added: 10 µM Mg2+ | relative to: high Mg2+ state, higher = stronger signaling | fold induction | 4.55 and 11.2

Repeated from above (study 2):
Change | binding fitness [natural log]
M51V | -1.33
K39Y | -1.28
L45E | -1.5
E44Q | -1.42
E54D | -1.5
K34Q | -1.35
A40R | -1.44
R53P | -1.48
I28G | -1.51
T48P | -1.53
N42V | -1.33
A29E | -1.46
A29V | -1.47
